Assay results collected from several papers.
Parts stem from different laboratories: compare values within a part only. Changes are numbered by the printed parent chain.

Set 1
Target: OGT, full length, His-tagged (human)
Technique: phage display, sequencing
Sample: in vitro
Concentration: 1 µg OGT
Setting: single substitutions, 15-mer displayed peptide, unchanged parent 5.27
Reference: input library
Reading: higher = stronger binding
Parent: peptide; GDFPVMFMPKYSIIY
For `GDFPVMFMPKYVIIY [S12V]`, the fold enrichment was 5.26 fold.
`GDFPVEFMPKYSIIY [M6E]` has a fold enrichment of 3.38 fold.
`GDFPVMFMPQYSIIY [K10Q]` gave a fold enrichment of 2.53 fold.
For `GDFEVMFMPKYSIIY [P4E]`, the fold enrichment was 10.8 fold.
`GDFPVMQMPKYSIIY [F7Q]` has a fold enrichment of 0.92 fold.
For `GNFPVMFMPKYSIIY [D2N]`, the fold enrichment was 5.77 fold.
The fold enrichment of `GIFPVMFMPKYSIIY [D2I]` is reported as 5.53 fold.
`GDDPVMFMPKYSIIY [F3D]` gave a fold enrichment of 5.54 fold.
With `GDFPVMFMPKASIIY [Y11A]` the fold enrichment was 1.81 fold.
For `LDFPVMFMPKYSIIY [G1L]`, the fold enrichment was 6.5 fold.
`GDFPVMFMPKYSIEY [I14E]` has a fold enrichment of 2.65 fold.

Set 2
Target: Centromere-binding protein 1, full length, His-tagged (CBF1, Saccharomyces cerevisiae, UniProt P17106, residues 1-351)
Chain of UniProt P17106 (whole entry, looked up): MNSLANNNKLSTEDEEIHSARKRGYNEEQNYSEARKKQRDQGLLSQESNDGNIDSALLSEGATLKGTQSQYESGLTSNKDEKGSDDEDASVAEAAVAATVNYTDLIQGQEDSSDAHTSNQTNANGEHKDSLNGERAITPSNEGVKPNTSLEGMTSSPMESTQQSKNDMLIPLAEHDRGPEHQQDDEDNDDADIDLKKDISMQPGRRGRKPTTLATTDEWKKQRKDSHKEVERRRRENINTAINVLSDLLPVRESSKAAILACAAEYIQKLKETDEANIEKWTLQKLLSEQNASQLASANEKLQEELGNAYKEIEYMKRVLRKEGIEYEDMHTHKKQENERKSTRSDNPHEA
Technique: competition protein-binding microarray
Molecule type: double-stranded DNA, one strand shown
Sample: in vitro
Concentration: 2 µM
Setting: whole 60-bp probe, lowest competitor level
Added: Pho4 competitor, 0.05 µM
Reading: higher = stronger binding
The fluorescence intensity of `GTCTTGTCTCATTGTCACGAGACTTTCCCCACTTCAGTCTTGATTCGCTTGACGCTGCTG` is reported as 865 a.u.
With `GTTTCGCCAGTTTCACTCATGACAAGTCTGCCAGTTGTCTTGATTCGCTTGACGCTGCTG` the fluorescence intensity was 71.3 a.u.
For `TGCGCAACAACTTGTCACACCACTTTATGTCTAGAAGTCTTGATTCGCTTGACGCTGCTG`, the fluorescence intensity was 131 a.u.
With `ACCTAGAAGAAGCCACTCGGGCACTAACTCGCCAGGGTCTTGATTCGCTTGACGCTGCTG` the fluorescence intensity was 86.9 a.u.
With `CATTGCGGCGGGCACCACATGAACTTCGTCAAGAATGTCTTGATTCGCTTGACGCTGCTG` the fluorescence intensity was 82.9 a.u.
With `CTTTCCCGATCTTGGACTGTGGGTGTAGCACATTTGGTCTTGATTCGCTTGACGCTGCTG` the fluorescence intensity was 78.2 a.u.
With `TAATTTTCAAACGACCACGCACCGCGAGAGAAAAGAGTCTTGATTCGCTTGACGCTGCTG` the fluorescence intensity was 82.5 a.u.
The fluorescence intensity of `CATACCCAACCTTGTTGTGTGGGTGAAGATATTTGTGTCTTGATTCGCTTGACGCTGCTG` is reported as 76.6 a.u.
The fluorescence intensity of `AAATTACTAAGTTGGTTGGTGGGTGACGCCGTATGAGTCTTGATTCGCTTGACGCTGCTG` is reported as 63.9 a.u.
The fluorescence intensity of `AATCTCGGTGAATTAACCGTGATGGATCACTTAGGTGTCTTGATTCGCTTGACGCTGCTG` is reported as 80.4 a.u.
For `GTCTTGTCTCATTGGATAGTGGGTGTCCCCACTTCAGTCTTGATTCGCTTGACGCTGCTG`, the fluorescence intensity was 79 a.u.
The fluorescence intensity of `ACAGAAACGAAGTATACCGTGCGATTGATTATGGTCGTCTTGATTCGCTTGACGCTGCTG` is reported as 67.7 a.u.
For `ACAAGGAAGGTATCCCACCTGACGAACAAAGATTGAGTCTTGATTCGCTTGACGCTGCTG`, the fluorescence intensity was 176 a.u.

Set 3
Target: CCND1, cyclin fold, Cln2 fusion (human)
Technique: yeast growth competition, sequencing
Sample: yeast
Setting: weak parent motif
Reference: not given
Reading: higher = stronger binding
Parent: HASPIN docking peptide (human); ASLRSVLFGLMNS
`ASLRSVLFGLANS [M11A]`: “normalised enrichment score” 0.988.
Under “normalised enrichment score”, `ASLRSVAFGLMNS [L7A]` is recorded as 0.111.
For `ASLRSVLFGAMNS [L10A]`, “normalised enrichment score” read 0.698.
`ASLRSVLFGLMAS [N12A]`: “normalised enrichment score” 1.06.
`ASLRSVLFALMNS [G9A]`: “normalised enrichment score” 0.468.
Under “normalised enrichment score”, `ASLRSALFGLMNS [V6A]` is recorded as 0.551.

Further values, each from its own experiment
With `PhoQ, residues 284 288 289 292 302 303 GASLAW` the fold induction was 1.57 (PhoP, residues 12 14 15 18 19 DLLYY (Escherichia coli, UniProt P23836); Sort-seq, refers to: YFP reporter; E. coli; PhoQ-PhoP variant library, added: 10 µM Mg2+; reference: high Mg2+ state, higher = stronger signaling).

A few entries again (set 1):
For `GDFEVMFMPKYSIIY [P4E]`, the fold enrichment was 10.8 fold.
`GDFPVMQMPKYSIIY [F7Q]` has a fold enrichment of 0.92 fold.
For `GNFPVMFMPKYSIIY [D2N]`, the fold enrichment was 5.77 fold.
